Measurements gathered from unrelated publications.
Parts stem from different laboratories: compare values within a part only.
Chain of UniProt Q92985 (whole entry, unmodified, looked up): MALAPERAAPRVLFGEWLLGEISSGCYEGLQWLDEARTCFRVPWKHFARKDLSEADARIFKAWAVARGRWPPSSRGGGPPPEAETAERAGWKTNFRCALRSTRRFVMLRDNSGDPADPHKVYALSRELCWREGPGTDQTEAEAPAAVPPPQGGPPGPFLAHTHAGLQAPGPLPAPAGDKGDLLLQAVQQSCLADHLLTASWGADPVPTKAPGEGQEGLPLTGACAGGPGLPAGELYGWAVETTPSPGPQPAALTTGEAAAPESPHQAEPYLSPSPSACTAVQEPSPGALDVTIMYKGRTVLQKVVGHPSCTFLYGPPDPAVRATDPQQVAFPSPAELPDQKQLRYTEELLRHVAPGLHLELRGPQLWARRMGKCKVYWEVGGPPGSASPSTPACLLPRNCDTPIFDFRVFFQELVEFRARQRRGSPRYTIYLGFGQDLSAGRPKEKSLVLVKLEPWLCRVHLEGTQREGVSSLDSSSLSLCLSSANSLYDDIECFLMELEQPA

Set 1
Target: Sal-like protein 4, full length isoform B (SALL4, Homo sapiens, UniProt Q9UJQ4-2, residues 1-616)
Method: universal PBM
Form: double-stranded DNA, one strand shown
Medium: in vitro
Tested at: not given
Setting: 8-mer, flanks averaged, mean of replicates
Reading: higher = stronger binding
Target sequence (chain): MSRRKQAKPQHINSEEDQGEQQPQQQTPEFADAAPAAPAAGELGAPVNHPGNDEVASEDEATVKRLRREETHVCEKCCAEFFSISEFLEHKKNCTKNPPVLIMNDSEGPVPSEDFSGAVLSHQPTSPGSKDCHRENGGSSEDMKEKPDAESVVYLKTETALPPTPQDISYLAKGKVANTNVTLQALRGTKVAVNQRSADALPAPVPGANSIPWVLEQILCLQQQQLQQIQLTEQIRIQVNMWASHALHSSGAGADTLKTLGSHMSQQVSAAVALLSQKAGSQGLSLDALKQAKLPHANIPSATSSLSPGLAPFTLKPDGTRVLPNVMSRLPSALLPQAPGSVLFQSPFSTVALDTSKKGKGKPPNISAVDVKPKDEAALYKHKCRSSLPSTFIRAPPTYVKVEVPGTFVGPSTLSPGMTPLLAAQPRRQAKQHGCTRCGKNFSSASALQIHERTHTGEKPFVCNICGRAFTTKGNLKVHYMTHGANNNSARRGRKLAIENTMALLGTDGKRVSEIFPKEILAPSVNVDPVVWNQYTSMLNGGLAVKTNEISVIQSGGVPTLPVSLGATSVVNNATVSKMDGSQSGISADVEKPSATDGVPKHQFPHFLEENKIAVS
`GTCGGCCA` gave an E-score of -0.208.
The E-score of `CATGCAAA` is reported as 0.207.
The E-score of `ATTGCACG` is reported as 0.00098.
`AGGTCACC` gave an E-score of -0.212.

Set 2
Target: Histone acetyltransferase KAT6A, winged helix 2, GST fusion (KAT6A, Homo sapiens, UniProt Q92794, residues 85-181)
Method: protein binding microarray
Form: double-stranded DNA, one strand shown
Medium: in vitro
Tested at: not given
Setting: 8-mer, flanks averaged, mean of 2 arrays, mostly near background
Relative to: not given
Reading: higher = stronger binding
Construct (chain): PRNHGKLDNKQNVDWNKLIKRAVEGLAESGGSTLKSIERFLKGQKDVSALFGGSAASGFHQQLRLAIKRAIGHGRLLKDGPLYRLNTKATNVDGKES
For `CCTTGAAG`, the E-score was -0.0152.
`CGATCCAG` has an E-score of 0.0195.
The E-score of `AAAAAGAT` is reported as 0.131.

Single results of other studies
`GCCTAGCACTTAGGACTGCTACTGCTATAGTGCTAGGTCTTGATTCGCTTGACGCTGCTG` has a log fluorescence of -0.342 z-score (Interferon regulatory factor 5, full length, phosphomimetic (IRF5, Homo sapiens, UniProt Q13568-2, residues 1-514, K96S/S451D/S453D/S456D/S462D); protein-binding microarray; double-stranded DNA, one strand shown, in vitro; 250 nM, 60-bp whole probe, with: salmon DNA 0.4 mg/ml; relative to: random background probes, higher = stronger binding).
`PhoQ, residues 284 288 289 292 302 303 NLALSC` gave a fold induction of 5.84 (PhoP, residues 12 14 15 18 19 SPWRL (Escherichia coli, UniProt P23836); Sort-seq, measured: YFP reporter; E. coli; PhoQ-PhoP variant library, with: 10 µM Mg2+; relative to: high Mg2+ state, higher = stronger signaling).
With `GCCTAGCACTTAGATATAAGTTTCGATTAGTGCTAGGTCTTGATTCGCTTGACGCTGCTG` the log fluorescence was 8.7 z-score (Interferon regulatory factor 7, full length, phosphomimetic (IRF7, Homo sapiens, UniProt Q92985, residues 1-503, S101K/S471D/S472D/S475D/S476D/S477D/S483D/S484D/S487D); protein-binding microarray; double-stranded DNA, one strand shown, in vitro; 250 nM, 60-bp whole probe, with: salmon DNA 0.4 mg/ml; relative to: random background probes, higher = stronger binding).

Repeated from above (set 1):
The E-score of `CATGCAAA` is reported as 0.207.
